Measured values of several laboratories.
Each line is one published result; not all experiments were run side by side.

Compound	host	medium	route	dose	setting	clearance
COC1C(c2ccc(Cl)c(Cc3ccc(OC4CCOC4)cc3)c2)OC(CO)C(O)C1O (stereo not shown)	CD-1 mouse	plasma	intravenous	5 mg/kg		5.95 mL/min/kg
O=C1CCC(N2Cc3cc(C(=O)O)c(F)cc3C2=O)C(=O)N1 (stereo not shown)	male CD-1 mouse	plasma	intravenous	1 mg/kg		36.2 mL/min/kg
CC[C@H](C)[C@H](NC(=O)[C@H](Cc1ccccc1)NC(=O)[C@H](CCC(=O)O)NC(=O)[C@H](CCCCN)NC(=O)[C@H](C)NC(=O)[C@H](C)NC(=O)[C@H](CCC(N)=O)NC(=O)CNC(=O)[C@H](CCC(=O)O)NC(=O)[C@H](CC(C)C)NC(=O)[C@H](Cc1ccc(O)cc1)NC(=O)[C@H](CO)NC(=O)[C@H](CO)NC(=O)[C@@H](NC(=O)[C@H](CC(=O)O)NC(=O)[C@H](CO)NC(=O)[C@@H](NC(=O)[C@H](Cc1ccccc1)NC(=O)[C@@H](NC(=O)CNC(=O)[C@H](CCC(=O)O)NC(=O)[C@H](C)NC(=O)[C@@H](N)Cc1c[nH]cn1)[C@@H](C)O)[C@@H](C)O)C(C)C)C(=O)N[C@@H](C)C(=O)N[C@@H](Cc1c[nH]c2ccccc12)C(=O)N[C@@H](CC(C)C)C(=O)N[C@H](C(=O)N[C@@H](CCCNC(=N)N)C(=O)NCC(=O)N[C@@H](CCCNC(=N)N)C(=O)NCC(=O)O)C(C)C	male CD-1 mouse	plasma	intravenous	1 mg/kg	single dose	153 mL/min/kg
Cc1cc(NCC(=O)C(C)(C)C)c2nc(N3CCOC[C@H]3C)cc(=O)n2c1	C57BL/6 mouse	plasma	intraperitoneal	10 mg/kg	single dose	72 mL/min/kg
FC(F)(F)Oc1ccc2[nH]c(-c3ccc(OCCN4CCOCC4)cn3)nc2c1	mouse	plasma	intraperitoneal	100 mg/kg		0.75 mL/min
Cc1cc(C(=O)N[C@@H](CC(=O)NC(C)(C)C)C(=O)NCCNC(=O)c2cccc(-c3cc[nH]n3)c2)no1	mouse	plasma	intravenous	0.1 mg/kg		133 mL/min/kg
CC(C)(C)c1cnc(CSc2cnc(NC(=O)C3CCN(C(=O)CCCCCCCN4Cc5cc6c(cc5C4)C(=O)N(C4CCC(=O)NC4=O)C6=O)CC3)s2)o1 (stereo not shown)	mouse	plasma	intravenous	2 mg/kg		312 mL/min/kg
O=C(NCCCCc1ccccc1)n1c(=O)oc2cc(-c3ccc(F)cc3)ccc21	CD-1 mouse	plasma	intravenous	1 mg/kg		17.7 mL/min/kg
CCC1(CC)CC(=O)N(C2c3cc(C(=O)NC4c5ccccc5CC4O)ccc3OC2(C)COC)C(=N)N1 (stereo not shown)	male C57BL/6 mouse	plasma	intravenous	2 mg/kg		39.8 mL/min/kg
C[C@@H](Nc1nc2c(cnn2C(C)(C)C)c(=O)n1Cc1cccc(F)c1)c1ccc(Cl)cc1	C57BL/6 mouse	plasma	intravenous	2.5 mg/kg		27.9 mL/min/kg
CC(=O)N1CCC=C(c2cc3c(Nc4cc5ncsc5cc4F)ncnc3s2)C1	mouse	plasma	intravenous	10 mg/kg		0.15 mL/min/kg
O=C(O)c1ccc(/C=C2\SC(=S)N(Cc3cccc(C(F)(F)F)c3)C2=O)cc1	C57BL/6 mouse	blood	intravenous	5 mg/kg		14.6 mL/min/kg
CC(C)NC(=O)NC1CC=C(c2cc3c(Nc4cc5ncsc5cc4F)ncnc3s2)CC1 (racemic)	mouse	plasma	intravenous	10 mg/kg		0.6 mL/min/kg
C/C(N)=N/C(=N\S(=O)(=O)c1ccc(C(F)(F)F)cc1)N1C[C@H](c2ccccc2)C(c2ccc(Cl)cc2)=N1	male C57BL/6 mouse	plasma	intravenous	5 mg/kg		12 mL/min/kg
CCC(=O)N1CCC=C(c2cc3c(Nc4cc5ncsc5cc4F)ncnc3s2)C1	mouse	plasma	intravenous	10 mg/kg		0.77 mL/min/kg
CCOC(=O)c1nc2cc(Cl)c(Cl)cc2nc1N1CCN(C(=O)Nc2ccc(N3CCNCC3)cc2)CC1	male mouse	plasma	intravenous	3 mg/kg		67 mL/min/kg

Repeated from above:
Compound	host	medium	route	dose	setting	clearance
FC(F)(F)Oc1ccc2[nH]c(-c3ccc(OCCN4CCOCC4)cn3)nc2c1	mouse	plasma	intraperitoneal	100 mg/kg		0.75 mL/min
Cc1cc(C(=O)N[C@@H](CC(=O)NC(C)(C)C)C(=O)NCCNC(=O)c2cccc(-c3cc[nH]n3)c2)no1	mouse	plasma	intravenous	0.1 mg/kg		133 mL/min/kg
